Assay results collected from several papers.
Parts stem from different laboratories: compare values within a part only. Substitutions count along the parent as printed.

Series 1 — target: CCNE1, cyclin fold, Cln2 fusion (human); method: yeast growth competition, sequencing; sample: yeast; notes: weak parent motif; relative to: not given; reading: higher = stronger binding; quantity: normalised enrichment score
Parent: E2F7 docking peptide (human); SSAQRRLEIPSGG
Substitution = S11A; result = -0.136
Substitution = R5K I9F; result = 0.646
Substitution = R5K; result = -0.337
Substitution = R5A; result = 0.35
Substitution = S2A; result = -0.493
Substitution = P10A; result = 0.0434
Substitution = E8A; result = -0.383
Substitution = G13A; result = 0.314

Series 2 — method: DHFR PCA, deep sequencing; sample: yeast; together with: (+)-ABA 58 µM; relative to: wild-type fitted maximum; reading: higher = stronger binding; quantity: relative binding score
Target: ABI1, truncated, D143A, DHFR fusion (Arabidopsis thaliana)
Notes: methotrexate growth selection, single substitutions
Parent: PYL1, truncated, DHFR fusion (Arabidopsis thaliana); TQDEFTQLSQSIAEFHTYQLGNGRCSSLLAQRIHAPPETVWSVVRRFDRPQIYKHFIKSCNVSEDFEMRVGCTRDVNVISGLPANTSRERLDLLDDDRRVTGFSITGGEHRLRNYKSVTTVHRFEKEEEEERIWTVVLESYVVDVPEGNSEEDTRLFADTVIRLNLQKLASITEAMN
Substitution = F157Q; result = -1.8%
Substitution = R99N; result = 68.2%
Substitution = N177W; result = 72.9%
Substitution = L8G; result = 20.3%
Substitution = V121S; result = -6.46%
Substitution = T17V; result = 68.3%
Substitution = E125V; result = 101%
Substitution = S140T; result = 10.4%
Substitution = D97C; result = 78.7%
Substitution = E130Y; result = 91.8%
Substitution = A175H; result = 80.3%
Substitution = T73W; result = 80.8%
Substitution = S11D; result = 87.7%
Substitution = E109M; result = 71%

Series 3 — method: universal PBM; molecule type: double-stranded DNA, one strand shown; sample: in vitro; tested at: not given; reading: higher = stronger binding; quantity: E-score
Target: Sal-like protein 4, full length isoform B (SALL4, Homo sapiens, UniProt Q9UJQ4-2, residues 1-616)
Notes: 8-mer, flanks averaged, mean of replicates
Strand = GACCCCAA; result = -0.142
Strand = TAGTCATA; result = 0.337
Strand = CGCATTGA; result = -0.0257
Strand = CTGACTTA; result = 0.13
Strand = ACTGTGAT; result = 0.00095
Strand = GACTAGGC; result = -0.0486
Strand = CGCAGGCA; result = -0.165
Strand = TATTGTAA; result = 0.34
Strand = ACCTGAGC; result = -0.143

Other studies, line by line
Molecule = PhoQ, residues 284 288 289 292 302 303 QWQEDG; target = PhoP, residues 12 14 15 18 19 NQGLL (Escherichia coli, UniProt P23836); assay = Sort-seq, refers to: YFP reporter; system = E. coli; conditions = PhoQ-PhoP variant library, together with: 10 µM Mg2+; how to read = relative to: high Mg2+ state, higher = stronger signaling; quantity = fold induction; result = 4.94

For quick reference, copied from above (series 2):
Substitution = S140T; result = 10.4%
Substitution = N177W; result = 72.9%
Substitution = E109M; result = 71%
Substitution = A175H; result = 80.3%
